Results collected from several papers.
Each numbered part is a random draw from the data of one study; scales do not carry over between parts. Changes are numbered by the printed parent chain.

Series 1
Target: CCNB2, cyclin fold, Cln2 fusion (human)
Technique: yeast growth competition, sequencing
Sample: yeast
Notes: weak parent motif
Reference: not given
Reading: higher = stronger binding
Starting sequence: WEE1 docking peptide (human); HKTFRKLRLFDTP
| Variant | normalised enrichment score |
| --- | --- |
| F4L | 0.478 |
| H1R | 1.6 |
| L7Y | 0.782 |
| R5F | -0.0459 |
| H1S | 1.03 |
| F4S | 0.641 |
| P13H | -0.0152 |
| L9Q | 1.36 |
| F10R | 0.923 |
| F10S | -0.0533 |
| T12Y | 0.0994 |
| R8H | 0.714 |
| L9R | 0.375 |
| F4H | 0.744 |
| F10P | 0.818 |
| L7F | 0.115 |
| T3D | 0.154 |

Series 2
Target: RING finger protein unkempt homolog, zinc fingers 1-6, GST-SBP tag (UNK, Homo sapiens, UniProt Q9C0B0, residues 30-357)
Technique: RNA Bind-n-Seq
Molecule type: RNA
Sample: in vitro
Concentration: not given
Notes: RNA with constant flanks, human-mouse chimeric sites, ends assumed
Reference: input RNA pool
Reading: higher = stronger binding
Shared flanks, not repeated: GGGAGUUCUACAGUCCGACGAUC … CAACAGAGGAUUGAGCAUCA
Target sequence (chain): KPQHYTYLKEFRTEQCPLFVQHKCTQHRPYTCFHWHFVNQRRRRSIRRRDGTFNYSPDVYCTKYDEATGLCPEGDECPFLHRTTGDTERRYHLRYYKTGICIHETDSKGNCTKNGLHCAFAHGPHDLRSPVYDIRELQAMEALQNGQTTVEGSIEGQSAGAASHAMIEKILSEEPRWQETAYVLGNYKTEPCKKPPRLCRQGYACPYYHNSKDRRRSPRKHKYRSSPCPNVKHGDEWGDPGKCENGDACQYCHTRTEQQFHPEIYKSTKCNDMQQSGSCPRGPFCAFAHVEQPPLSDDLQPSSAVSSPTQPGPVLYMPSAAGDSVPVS
| Sequence | bound/input enrichment |
| --- | --- |
| UUGAAAACUGAUUCAAGUAAGUUUGAGUAUCACAAUGUUAGCUUUCUAAUUCCACACAAGUACUUGGUACAGUUUCUUUAUAAUCUGACAUCACCCCAGCGCCAUUUGUAAAGAGCAACU | 0.912 ratio |
| ACACAAUAUGAGACCAACAGCAUGGACUUCAAAGUUGGGGCAGAUGGGACAGUCUUCGCCACCCGGGAGUUGAAGAUCCCCUCCGAGCAGGUGGCGUUUACCGUCACUGCAUGGGACAGC | 0.135 ratio |
| GAGCGUCUCGCUCGAACUGGGAUCAUCGUGACCACUAGUGAGGCUGUCCUCCUACAGCUGGUGGCUGACAAAGACCACCCGAAGUUCAAGGAAAUUCAGAACCUAAUUAAGGCGAGUGCC | 0.139 ratio |
| UCAAGGGGGCACUGCAGAGCCAUGCCUUUCCUUGACAUACAGAAAAAGCUGGGCAUCAGCCUGGACCGGCACUUUAUGUUCCUAAGCGCAGAACAGCCCUACAAGAUCGCCGCUCGGUGC | 0.0994 ratio |
| UCUUAACUUAUUCAUUUAACUUAUUUUUAUAGCUAGAUAAAUAUUGUUAGUCUUAGACAAUAGCUCACAUCUUUACAAAAGCAUGCUCUCCCUGUCCAUUUGUCUUAUAACAUGACCCAG | 18.2 ratio |
| UACUACUAUGAUGGUGAUAUUGGAAAUUAUUAUUAUGGCCAGGGUCAUCCCAUGAAGCCUCAUAGAAUCCGGAUGACCCAUAACUUGCUGCUAAAUUAUGGUUUAUACCGAAAAAUGGAA | 0.272 ratio |
| GAUGAUAAUCACACAAACAAGUCACUGUUACAUGACCAGAGUUGUACUUCUUUUCCUGAUUAAUAUUCUCCCUGGAACCACUGGUCAAGGGGAAUCAAGACGACAAGAACCCGGGGACUU | 0.153 ratio |
| CUGUGACCACAAGAUCCUACCUGAGUGGCAGCUGAAGUUGACUCCCUCCCCUUCCCUGAACCCCCCCCUUUUGUUCCCCCAUCCCCCAGUGUCGGCUGAGAUGUUGCCUCUGCACGGUUC | 1.32 ratio |

Series 3
Target: ABI1, truncated, D143A, DHFR fusion (Arabidopsis thaliana)
Technique: DHFR PCA, deep sequencing
Sample: yeast
Notes: methotrexate growth selection, single substitutions
Together with: (+)-ABA 0.0091 µM
Reference: wild-type fitted maximum
Reading: higher = stronger binding
Starting sequence: PYL1, truncated, DHFR fusion (Arabidopsis thaliana); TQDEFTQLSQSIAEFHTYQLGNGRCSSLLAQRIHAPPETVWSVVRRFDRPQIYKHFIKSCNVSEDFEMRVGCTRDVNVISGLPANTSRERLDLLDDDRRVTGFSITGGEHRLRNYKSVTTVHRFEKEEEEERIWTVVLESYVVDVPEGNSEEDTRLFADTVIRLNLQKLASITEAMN; partner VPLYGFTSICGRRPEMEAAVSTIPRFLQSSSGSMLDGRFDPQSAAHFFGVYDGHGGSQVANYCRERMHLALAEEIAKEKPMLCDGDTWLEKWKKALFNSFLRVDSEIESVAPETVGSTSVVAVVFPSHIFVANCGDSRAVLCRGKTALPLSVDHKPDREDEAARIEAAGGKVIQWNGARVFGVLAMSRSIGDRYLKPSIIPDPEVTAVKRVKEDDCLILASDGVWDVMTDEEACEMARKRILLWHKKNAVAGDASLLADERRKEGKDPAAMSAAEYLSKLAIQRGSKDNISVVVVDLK
| Variant | relative binding score [%] |
| --- | --- |
| N85D | 13.9 |
| C72F | 0.534 |
| V44F | -3.19 |
| L156W | 0.882 |
| A35G | -2.12 |
| V62Y | 3.75 |
| E130H | 39.9 |
| T39F | 2.74 |
| H55K | 12.3 |
| G21I | 3.38 |
| T86K | 10.9 |
| V70M | 3.94 |
| V161K | 4.67 |
| K116Q | 22.5 |
| E125C | 34.8 |
| F66C | 1.67 |
| G108H | -5.88 |
| R132V | 24.1 |
| Y115P | 3.63 |

Series 4
Target: Histone acetyltransferase KAT6A, both winged helices, GST fusion (KAT6A, Homo sapiens, UniProt Q92794, residues 1-181)
Technique: protein binding microarray
Molecule type: double-stranded DNA, one strand shown
Sample: in vitro
Concentration: not given
Notes: 8-mer, flanks averaged, mean of 2 arrays, mostly near background
Reference: not given
Reading: higher = stronger binding
Residues (chain): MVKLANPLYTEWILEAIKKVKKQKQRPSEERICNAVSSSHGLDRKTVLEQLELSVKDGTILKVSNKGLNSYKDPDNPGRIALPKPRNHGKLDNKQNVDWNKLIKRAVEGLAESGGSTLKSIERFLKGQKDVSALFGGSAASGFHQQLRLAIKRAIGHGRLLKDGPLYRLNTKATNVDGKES
| Sequence | E-score |
| --- | --- |
| GAATAGCA | -0.232 |
| AATTGCCT | -0.0454 |
| CTTTCCAA | -0.0879 |
| AACGGTAA | 0.175 |
| ATATGAAG | -0.00889 |
| ACGTCGTA | 0.0137 |
| GCGAGGCC | -0.00023 |
| GTGAGCGA | -0.0764 |
| GATGGGCC | -0.0618 |
| ATGCTCGC | 0.0436 |
| ATTCGTAC | -0.0753 |
| AACTCTAT | -0.136 |
| CCGCATGC | 0.227 |
| CGGTAGTC | 0.186 |
| AAGGCCAC | -0.11 |
| AACGATGG | -0.135 |
| GTGCTGGA | -0.0706 |
| GAGAACTA | -0.0585 |

Repeated from above (series 2):
| Sequence | bound/input enrichment |
| --- | --- |
| UUGAAAACUGAUUCAAGUAAGUUUGAGUAUCACAAUGUUAGCUUUCUAAUUCCACACAAGUACUUGGUACAGUUUCUUUAUAAUCUGACAUCACCCCAGCGCCAUUUGUAAAGAGCAACU | 0.912 ratio |
| ACACAAUAUGAGACCAACAGCAUGGACUUCAAAGUUGGGGCAGAUGGGACAGUCUUCGCCACCCGGGAGUUGAAGAUCCCCUCCGAGCAGGUGGCGUUUACCGUCACUGCAUGGGACAGC | 0.135 ratio |
| GAGCGUCUCGCUCGAACUGGGAUCAUCGUGACCACUAGUGAGGCUGUCCUCCUACAGCUGGUGGCUGACAAAGACCACCCGAAGUUCAAGGAAAUUCAGAACCUAAUUAAGGCGAGUGCC | 0.139 ratio |
| UCAAGGGGGCACUGCAGAGCCAUGCCUUUCCUUGACAUACAGAAAAAGCUGGGCAUCAGCCUGGACCGGCACUUUAUGUUCCUAAGCGCAGAACAGCCCUACAAGAUCGCCGCUCGGUGC | 0.0994 ratio |
| UCUUAACUUAUUCAUUUAACUUAUUUUUAUAGCUAGAUAAAUAUUGUUAGUCUUAGACAAUAGCUCACAUCUUUACAAAAGCAUGCUCUCCCUGUCCAUUUGUCUUAUAACAUGACCCAG | 18.2 ratio |
| UACUACUAUGAUGGUGAUAUUGGAAAUUAUUAUUAUGGCCAGGGUCAUCCCAUGAAGCCUCAUAGAAUCCGGAUGACCCAUAACUUGCUGCUAAAUUAUGGUUUAUACCGAAAAAUGGAA | 0.272 ratio |
| GAUGAUAAUCACACAAACAAGUCACUGUUACAUGACCAGAGUUGUACUUCUUUUCCUGAUUAAUAUUCUCCCUGGAACCACUGGUCAAGGGGAAUCAAGACGACAAGAACCCGGGGACUU | 0.153 ratio |
| CUGUGACCACAAGAUCCUACCUGAGUGGCAGCUGAAGUUGACUCCCUCCCCUUCCCUGAACCCCCCCCUUUUGUUCCCCCAUCCCCCAGUGUCGGCUGAGAUGUUGCCUCUGCACGGUUC | 1.32 ratio |
